Measurements gathered from unrelated publications.
Several values in a cell are separate wells, animals, samples, runs or records. ± marks the error that the study gave.

Compound	system	conditions	tissue uptake
Cc1cc(C)n(CCN(CCN)CCCCCCNC(=O)[C@@H](N)Cc2c[nH]cn2)n1.[99Tc+].[C-]#[O+].[C-]#[O+].[C-]#[O+]	BALB/c nude mice, A549 xenograft, intestine	intravenous, 4 h	18.2 ± 3.35 %IA/g
CCCC[C@H](NC(=O)CNC(=O)CNC(=O)[C@H](CCCCNC(=O)[C@H](CC(=O)O)NC(=O)C(C)c1ccc(CC(C)C)cc1)NC(=O)CN1CCN(CC(=O)O)CCN(CC(=O)O)CCN(CC(=O)O)CC1)C(=O)N[C@H]1CC(=O)NCCCC[C@@H](C(N)=O)NC(=O)[C@H](Cc2c[nH]c3ccccc23)NC(=O)[C@H](CCCNC(=N)N)NC(=O)[C@@H](Cc2ccccc2)NC(=O)[C@H](Cc2c[nH]cn2)NC1=O (some centres unmarked) [lutetium-177 labelled]	C57 mice, tumour-bearing, spleen	intravenous, 0.037 MBq, 0.5 h	1.7 ± 0.34 %ID/g
CC(C)C[C@H](NC(=O)[C@@H](CCCCNC(=O)[C@@H](Cc1ccccc1)NC(=O)CCCCCCCNC(=O)CN1CCN(CC(=O)O)CCN(CC(=O)O)CCN(CC(=O)O)CC1)NC(=O)[C@H](Cc1ccc(O)cc1)NC(=O)[C@H](CO)NC(=O)[C@H](Cc1c[nH]c2ccccc12)NC(=O)[C@H](Cc1c[nH]cn1)NC(=O)[C@@H]1CCC(=O)N1)C(=O)N[C@@H](CCCNC(=N)N)C(=O)N1CCC[C@H]1C(=O)NCC(N)=O [indium-111 labelled]	male athymic nude mice, DU-145 prostate cancer xenograft, blood	intravenous, 0.037 MBq, 0.5 h	1.47 ± 0.42 %ID/g
Cc1cc(C)n(CCN(CCN)CCCCCCNC(=O)[C@@H](N)Cc2c[nH]c3ccccc23)n1.[99Tc+].[C-]#[O+].[C-]#[O+].[C-]#[O+]	BALB/c nude mice, A549 xenograft, lung	intravenous, 15 min	5.08 ± 0.39 %IA/g
N#C[C@@H]1CCCN1C(=O)CNC(=O)c1ccnc2ccc(OCCCN3CCN(C(=O)CCc4ccc(O)c(CN5CCN6CC(=O)[O][Al-]([18F])([O]C(=O)C5)[O]c5ccc(CCC(=O)N7CCN(CCCOc8ccc9nccc(C(=O)NCC(=O)N%10CCC[C@H]%10C#N)c9c8)CC7)cc5C6)c4)CC3)cc12 (some centres unmarked)	BALB/c nude mice, U-87 MG xenograft, intestine	1 h, blocking, with: DOTA-FAPI-04 40 nmol/mouse co-injected	5.52 ± 0.83 %ID/g
COc1ccc2c(c1)C(C)(C)C(/C=C/C1=C(Oc3ccc(C(=O)NCCCCOc4cc(CN(Cc5ccccn5)Cc5ccccn5)cc(CN(Cc5ccccn5)Cc5ccccn5)c4)cc3)C(=C/C=C3/N(CCCCS(=O)(=O)[O-])c4ccc(OC)cc4C3(C)C)CCC1)=[N+]2CCCCS(=O)(=O)[O-].O=[N+]([O-])[O-].O=[N+]([O-])[O-].[99Tc+].[C-]#[O+].[C-]#[O+].[C-]#[O+].[Zn+2]	BALB/c mice, S. aureus myositis, stomach with contents	12 h post-injection	0.51 %ID/g and 1.58 %ID/g and 0.57 %ID/g and 2.32 %ID/g
COc1ccc(Nc2nc(Nc3ccc(OCCOCC[18F])cc3)ncc2Br)cc1	ICR mice, S180 tumour-bearing, muscle	intravenous, 370 kBq, 120 min	2.47 ± 0.18 %ID/g
O=C(NCC1OC2CCC=CCCC2O1)c1ccc([18F])nc1 (centres unmarked)	healthy female BALB/c nude mice, bladder	intravenous, 7.4 MBq per mouse, 2 min	5 ± 2.2 %ID/g
O=C(O)CCCOc1ccc([18F])cc1-c1cc(-c2ccccc2C(F)(F)F)n(-c2ccccc2)n1	mice, large intestine	intravenous, 30 min	0.34 ± 0.05 %ID/g
N#C[C@@H]1CCCN1C(=O)CNC(=O)c1ccnc2ccc(OCCCN3CCN(C(=O)CCc4ccc5c(c4)CN4CCN6CC(=O)[O][68Ga-]([O]C(=O)C4)([O]5)[O]c4ccc(CCC(=O)N5CCN(CCCOc7ccc8nccc(C(=O)NCC(=O)N9CCC[C@H]9C#N)c8c7)CC5)cc4C6)CC3)cc12	BALB/c nude mice, U-87 MG xenograft, heart	1 h	1.05 ± 0.14 %ID/g
CCCC[C@H](NC(=O)CNC(=O)CNC(=O)[C@H](CCCCNC(=O)C(C)c1ccc(CC(C)C)cc1)NC(=O)CN1CCN(CC(=O)O)CCN(CC(=O)O)CCN(CC(=O)O)CC1)C(=O)N[C@H]1CC(=O)NCCCC[C@@H](C(N)=O)NC(=O)[C@H](Cc2c[nH]c3ccccc23)NC(=O)[C@H](CCCNC(=N)N)NC(=O)[C@@H](Cc2ccccc2)NC(=O)[C@H](Cc2c[nH]cn2)NC1=O (some centres unmarked) [lutetium-177 labelled]	C57 mice, tumour-bearing, lung	2 h	1.9 ± 0.46 %ID/g
CCCC[C@H](NC(=O)CCCCCCCNC(=O)CN1CCN(CC(=O)O)CCN(CC(=O)O)CC1)C(=O)N[C@H]1CC(=O)NCCCC[C@@H](C(N)=O)NC(=O)[C@H](Cc2c[nH]c3ccccc23)NC(=O)[C@H](CCCNC(=N)N)NC(=O)[C@@H](Cc2ccccc2)NC(=O)[C@H](Cc2c[nH]cn2)NC1=O [fluorine-18 labelled]	C57 mice B16-F10 melanoma, spleen	intravenous, 0.37 MBq, 2 h	0.28 ± 0.06 %ID/g
COc1ccc(Nc2nc(Nc3ccc(OCCOCCOCC[18F])cc3)ncc2Br)cc1	ICR mice, S180 tumour-bearing, liver	intravenous, 370 kBq, 120 min	1.85 ± 0.04 %ID/g
CCCC[C@H](NC(=O)CNC(=O)CNC(=O)[C@H](CCCCNC(=O)[C@H](CCN)NC(=O)C(C)c1ccc(CC(C)C)cc1)NC(=O)CN1CCN(CC(=O)O)CCN(CC(=O)O)CCN(CC(=O)O)CC1)C(=O)N[C@H]1CC(=O)NCCCC[C@@H](C(N)=O)NC(=O)[C@H](Cc2c[nH]c3ccccc23)NC(=O)[C@H](CCCNC(=N)N)NC(=O)[C@@H](Cc2ccccc2)NC(=O)[C@H](Cc2c[nH]cn2)NC1=O (some centres unmarked) [lutetium-177 labelled]	C57 mice, tumour-bearing, lung	2 h	1.42 ± 0.32 %ID/g
N#C[C@@H]1CCCN1C(=O)CNC(=O)c1ccnc2ccc(OCCCN3CCN(C(=O)CCc4ccc5c(c4)CN4CCN(Cc6cc(CCC(=O)O)ccc6O)CC(=O)[O][Al-]([18F])([O]C(=O)C4)[O]5)CC3)cc12 (some centres unmarked)	BALB/c nude mice, U-87 MG tumour, gallbladder	60 min post-injection	25.4 ± 11.3 %ID/g
CCCC[C@H](NC(=O)COCCOCCNC(=O)CN1CCN(CC(=O)O)CCN(CC(=O)O)CC1)C(=O)N[C@H]1CC(=O)NCCCC[C@@H](C(N)=O)NC(=O)[C@H](Cc2c[nH]c3ccccc23)NC(=O)[C@H](CCCNC(=N)N)NC(=O)[C@@H](Cc2ccccc2)NC(=O)[C@H](Cc2c[nH]cn2)NC1=O [fluorine-18 labelled]	C57 mice, B16/F10 melanoma, bone	intravenous, 1 h, with: NDP-MSH 10 µg	3.74 ± 1.1 %ID/g
O=C(NCC1OC2CCC=CCCC2O1)c1ccc(COCCOCCOCC[18F])cc1 (centres unmarked)	healthy female BALB/c nude mice, large intestine	intravenous, 7.4 MBq per mouse, 15 min	5.6 ± 0.3 %ID/g

Repeated from above:
Compound	system	conditions	tissue uptake
CCCC[C@H](NC(=O)CNC(=O)CNC(=O)[C@H](CCCCNC(=O)[C@H](CC(=O)O)NC(=O)C(C)c1ccc(CC(C)C)cc1)NC(=O)CN1CCN(CC(=O)O)CCN(CC(=O)O)CCN(CC(=O)O)CC1)C(=O)N[C@H]1CC(=O)NCCCC[C@@H](C(N)=O)NC(=O)[C@H](Cc2c[nH]c3ccccc23)NC(=O)[C@H](CCCNC(=N)N)NC(=O)[C@@H](Cc2ccccc2)NC(=O)[C@H](Cc2c[nH]cn2)NC1=O (some centres unmarked) [lutetium-177 labelled]	C57 mice, tumour-bearing, spleen	intravenous, 0.037 MBq, 0.5 h	1.7 ± 0.34 %ID/g
CC(C)C[C@H](NC(=O)[C@@H](CCCCNC(=O)[C@@H](Cc1ccccc1)NC(=O)CCCCCCCNC(=O)CN1CCN(CC(=O)O)CCN(CC(=O)O)CCN(CC(=O)O)CC1)NC(=O)[C@H](Cc1ccc(O)cc1)NC(=O)[C@H](CO)NC(=O)[C@H](Cc1c[nH]c2ccccc12)NC(=O)[C@H](Cc1c[nH]cn1)NC(=O)[C@@H]1CCC(=O)N1)C(=O)N[C@@H](CCCNC(=N)N)C(=O)N1CCC[C@H]1C(=O)NCC(N)=O [indium-111 labelled]	male athymic nude mice, DU-145 prostate cancer xenograft, blood	intravenous, 0.037 MBq, 0.5 h	1.47 ± 0.42 %ID/g
